Experimental data from different studies.
Each numbered part is a random draw from the data of one study; scales do not carry over between parts.
UniProt Q00536, sequence (whole entry, looked up): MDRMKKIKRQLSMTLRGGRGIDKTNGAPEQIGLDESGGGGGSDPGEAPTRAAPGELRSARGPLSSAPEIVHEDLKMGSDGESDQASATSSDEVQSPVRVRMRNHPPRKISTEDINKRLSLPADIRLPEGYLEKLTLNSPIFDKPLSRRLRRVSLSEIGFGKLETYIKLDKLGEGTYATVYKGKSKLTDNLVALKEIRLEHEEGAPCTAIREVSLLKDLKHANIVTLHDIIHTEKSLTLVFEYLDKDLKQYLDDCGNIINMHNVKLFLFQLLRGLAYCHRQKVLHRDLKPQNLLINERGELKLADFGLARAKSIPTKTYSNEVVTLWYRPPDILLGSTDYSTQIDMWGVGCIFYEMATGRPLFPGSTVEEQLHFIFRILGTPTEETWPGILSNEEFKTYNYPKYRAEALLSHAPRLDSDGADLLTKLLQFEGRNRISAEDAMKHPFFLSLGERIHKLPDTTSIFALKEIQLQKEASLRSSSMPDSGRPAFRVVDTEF
UniProt P27361, sequence (whole entry, looked up): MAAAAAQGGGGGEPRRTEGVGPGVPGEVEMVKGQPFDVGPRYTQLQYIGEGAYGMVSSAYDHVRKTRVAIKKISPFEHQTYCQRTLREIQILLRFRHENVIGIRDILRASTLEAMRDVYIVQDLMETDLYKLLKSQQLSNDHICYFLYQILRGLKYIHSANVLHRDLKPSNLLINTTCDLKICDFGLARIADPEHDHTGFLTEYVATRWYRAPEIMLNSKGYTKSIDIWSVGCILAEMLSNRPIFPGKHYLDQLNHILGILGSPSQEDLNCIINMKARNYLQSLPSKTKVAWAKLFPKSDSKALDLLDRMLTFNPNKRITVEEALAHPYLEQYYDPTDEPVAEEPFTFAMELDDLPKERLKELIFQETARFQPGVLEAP
UniProt O75914, sequence (whole entry, looked up): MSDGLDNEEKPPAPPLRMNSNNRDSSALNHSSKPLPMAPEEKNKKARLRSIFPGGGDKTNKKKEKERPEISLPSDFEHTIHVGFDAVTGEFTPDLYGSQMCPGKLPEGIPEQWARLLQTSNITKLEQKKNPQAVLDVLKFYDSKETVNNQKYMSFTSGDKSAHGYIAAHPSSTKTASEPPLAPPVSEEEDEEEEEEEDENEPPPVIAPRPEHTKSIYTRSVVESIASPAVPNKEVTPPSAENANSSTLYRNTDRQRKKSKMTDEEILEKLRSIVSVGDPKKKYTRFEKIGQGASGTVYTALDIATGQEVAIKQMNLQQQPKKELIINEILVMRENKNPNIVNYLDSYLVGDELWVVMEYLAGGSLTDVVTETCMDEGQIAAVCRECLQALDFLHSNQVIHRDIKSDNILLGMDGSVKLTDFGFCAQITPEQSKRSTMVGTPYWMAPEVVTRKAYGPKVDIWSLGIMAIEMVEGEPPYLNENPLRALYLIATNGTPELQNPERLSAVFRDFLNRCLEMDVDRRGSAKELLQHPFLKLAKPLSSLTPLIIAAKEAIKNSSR
UniProt P41240, sequence (whole entry, looked up): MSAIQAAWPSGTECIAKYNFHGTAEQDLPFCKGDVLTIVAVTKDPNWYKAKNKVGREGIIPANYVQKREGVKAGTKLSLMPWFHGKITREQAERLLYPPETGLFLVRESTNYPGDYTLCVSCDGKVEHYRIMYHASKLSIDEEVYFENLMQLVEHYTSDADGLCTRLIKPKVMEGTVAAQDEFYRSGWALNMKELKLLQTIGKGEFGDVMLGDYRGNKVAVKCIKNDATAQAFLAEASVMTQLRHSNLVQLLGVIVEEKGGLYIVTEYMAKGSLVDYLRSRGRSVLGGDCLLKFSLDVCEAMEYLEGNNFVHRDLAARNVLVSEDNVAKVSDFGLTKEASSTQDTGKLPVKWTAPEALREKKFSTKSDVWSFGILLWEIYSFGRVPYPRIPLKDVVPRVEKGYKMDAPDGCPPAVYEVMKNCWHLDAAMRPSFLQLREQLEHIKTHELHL
UniProt Q00532, sequence (whole entry, looked up): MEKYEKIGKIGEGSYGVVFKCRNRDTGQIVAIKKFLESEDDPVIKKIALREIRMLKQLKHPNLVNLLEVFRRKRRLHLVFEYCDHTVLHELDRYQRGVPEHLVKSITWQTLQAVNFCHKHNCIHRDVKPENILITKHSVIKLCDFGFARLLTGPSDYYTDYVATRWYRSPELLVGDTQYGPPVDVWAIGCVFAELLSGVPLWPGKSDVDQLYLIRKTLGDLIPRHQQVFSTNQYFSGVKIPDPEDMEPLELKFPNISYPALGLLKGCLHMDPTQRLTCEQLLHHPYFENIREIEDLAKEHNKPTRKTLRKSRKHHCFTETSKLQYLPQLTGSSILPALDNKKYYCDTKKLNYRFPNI
UniProt P0C264, sequence (whole entry, looked up): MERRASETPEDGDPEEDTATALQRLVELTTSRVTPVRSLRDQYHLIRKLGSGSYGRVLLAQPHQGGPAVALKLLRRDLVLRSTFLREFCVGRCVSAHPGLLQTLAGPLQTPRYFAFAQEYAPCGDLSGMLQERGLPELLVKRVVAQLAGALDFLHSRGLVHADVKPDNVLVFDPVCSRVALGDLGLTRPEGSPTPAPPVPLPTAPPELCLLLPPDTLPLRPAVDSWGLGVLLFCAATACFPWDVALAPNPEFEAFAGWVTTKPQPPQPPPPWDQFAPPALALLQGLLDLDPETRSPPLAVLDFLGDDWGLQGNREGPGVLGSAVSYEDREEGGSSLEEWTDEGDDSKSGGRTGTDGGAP
UniProt P11309, sequence (whole entry, looked up): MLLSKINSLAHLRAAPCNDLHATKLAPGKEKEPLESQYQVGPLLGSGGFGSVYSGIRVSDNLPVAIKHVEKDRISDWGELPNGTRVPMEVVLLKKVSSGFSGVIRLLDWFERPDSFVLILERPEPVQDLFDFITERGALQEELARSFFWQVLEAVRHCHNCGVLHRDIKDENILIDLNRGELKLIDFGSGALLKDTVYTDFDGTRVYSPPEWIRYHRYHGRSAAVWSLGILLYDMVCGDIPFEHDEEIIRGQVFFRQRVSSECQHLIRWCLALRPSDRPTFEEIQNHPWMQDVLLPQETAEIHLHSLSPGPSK
UniProt Q8WTQ7, sequence (whole entry, looked up): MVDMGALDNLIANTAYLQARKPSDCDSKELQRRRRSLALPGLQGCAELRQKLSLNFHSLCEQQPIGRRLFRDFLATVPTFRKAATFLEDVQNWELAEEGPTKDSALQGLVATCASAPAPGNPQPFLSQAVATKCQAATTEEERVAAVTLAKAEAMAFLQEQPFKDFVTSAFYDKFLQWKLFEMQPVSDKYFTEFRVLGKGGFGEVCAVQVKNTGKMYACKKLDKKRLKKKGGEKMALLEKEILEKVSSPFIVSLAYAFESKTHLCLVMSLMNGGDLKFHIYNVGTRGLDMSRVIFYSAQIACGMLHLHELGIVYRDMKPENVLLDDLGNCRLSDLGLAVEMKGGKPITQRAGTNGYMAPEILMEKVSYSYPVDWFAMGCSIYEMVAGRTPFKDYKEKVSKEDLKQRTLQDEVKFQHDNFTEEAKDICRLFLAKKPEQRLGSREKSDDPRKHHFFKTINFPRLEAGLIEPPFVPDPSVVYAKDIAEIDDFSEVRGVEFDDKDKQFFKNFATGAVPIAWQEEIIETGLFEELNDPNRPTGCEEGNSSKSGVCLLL

Study 1
SMILES: CCS(=O)(=O)c1cc2cc(C[C@@](O)(CC(C)(C)c3ccc(F)cc3C(N)=O)C(F)(F)F)[nH]c2cn1
Read-out: cell-free assay
Method: competition with immobilised ligand
Concentration: 1 µM
| target | remaining binding [%] |
| --- | --- |
| CDKL1 (Homo sapiens, UniProt Q00532) | 78 |
| Tyrosine-protein kinase ABL1, non-phosphorylated (ABL1, Homo sapiens, UniProt P00519, Q252H) | 79 |
| PAK3 (Homo sapiens, UniProt O75914) | 100 |
| PIM1 (Homo sapiens, UniProt P11309) | 97 |
| ERBB2 (Homo sapiens, UniProt P04626) | 100 |
| CSK (Homo sapiens, UniProt P41240) | 82 |
| MAPK3 (Homo sapiens, UniProt P27361) | 98 |
| CDK16 (Homo sapiens, UniProt Q00536) | 78 |
| SBK3 (Homo sapiens, UniProt P0C264) | 94 |
| EGFR (Homo sapiens, UniProt P00533) | 96 |
| FGR (Homo sapiens, UniProt P09769) | 88 |
| EGFR (Homo sapiens, UniProt P00533, G719S) | 100 |
| GRK7 (Homo sapiens, UniProt Q8WTQ7) | 95 |

Study 2
Species: mouse
Matrix: microsomes or S9
Concentration: 2 µM
Time: 0.5 h
| SMILES | remaining compound [%] |
| --- | --- |
| Cc1cc(Cl)nc(NCCCc2nc(C(C)C)no2)n1 | 0.282 |
| O=C1[C@@H]2CCCN2/C(=N/c2ccccc2)N1c1ccccc1 | 0.618 |
| OCc1cc2nc(-c3ccc(OC4CCOC4)cc3)ccc2o1 (stereo not drawn) | 31.4 |

Study 3
Cell line: A-375
Concentration: 100 µM
Time: 18 h
| SMILES | viability [%] |
| --- | --- |
| O=c1cc(-c2ccccc2)oc2cc(O)c(O)c(O)c12 | 56.3 |
| CCCCN(CCCC)CC(O)c1cc(Cl)cc2c1-c1ccc(Cl)cc1/C2=C/c1ccc(Cl)cc1 (stereo not drawn) | 13.5 |
| Cc1ccccc1N1C(=O)c2cc(S(N)(=O)=O)c(Cl)cc2NC1C (stereo not drawn) | 105 |

Study 4
Target: PABPC1L2, full length, GST fusion (mouse, UniProt A0ABA7IW68)
Method: RNAcompete
Molecule type: RNA
Matrix: in vitro
Concentration: 20 nM
Setting: 7-mer, probes averaged, single round
Relative to: mean of 7-mers
Reading: higher = stronger binding
Construct (chain): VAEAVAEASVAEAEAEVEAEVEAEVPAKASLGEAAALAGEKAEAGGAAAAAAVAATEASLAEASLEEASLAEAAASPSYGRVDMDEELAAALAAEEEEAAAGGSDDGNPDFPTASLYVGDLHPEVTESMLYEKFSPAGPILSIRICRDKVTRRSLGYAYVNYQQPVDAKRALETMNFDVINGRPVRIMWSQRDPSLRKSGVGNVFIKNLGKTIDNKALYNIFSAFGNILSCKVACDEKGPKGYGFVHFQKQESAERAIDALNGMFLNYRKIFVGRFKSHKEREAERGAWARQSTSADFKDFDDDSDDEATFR
| Strand | 7-mer Z-score |
| --- | --- |
| GGCACAU | 0.0424 |
| GCUAACC | -0.159 |
| UAGGGGA | 0.155 |
| AGGCACG | 0.28 |
| GAUUCUA | -0.219 |
| GGAUAGG | 0.238 |
| GAGCGCG | -0.124 |
| UGUAGAU | -0.121 |
